Assay results gathered from unrelated publications.
Compare with care: the assays were run in different laboratories. ± marks the error that the study gave.
Technique: steady-state kinetics
B1: GTPBP3 A162P (Homo sapiens, UniProt Q969Y2); chain TRRSSGAPAPGSGATIFALSSGQGRCGIAVIRTSGPASGHALRILTAPRDLPLARHASLRLLSDPRSGEPLDRALVLWFPGPQSFTGEDCVEFHVHGGPAVVSGVLQALGSVPGLRPAEAGEFTRRAFANGKLNLTEVEGLPDLIHAETEAQRRQALRQLDGELGHLCRGWAETLTKALAHVEAYIDFGEDDNLEEGVLEQADIEVRALQVALGAHLRDARRGQRLRSGVHVVVTGPPNAGKSSLVNLLSRKPVSIVSPEPGTTRDVLETPVDLAGFPVLLSDTAGLREGVGPVEQEGVRRARERLEQADLILAMLDASDLASPSSCNFLATVVASVGAQSPSDSSQRLLLVLNKSDLLSPEGPGPGPDLPPHLLLSCLTGEGLDGLLEALRKELAAVCGDPSTDPPLLTRARHQHHLQGCLDALGHYKQSKDLALAAEALRVARGHLTRLTGGGGTEEILDIIFQDFCVGK
B2: enzyme P89Y (Thermobifida fusca, UniProt Q47RA9); chain MIMIMASKSSPHDLPDVSGLSIAVLGGTGDQGRGLARRFAMAGHEVILGSRSAERAQAVAAELGEGLPVRGMDNAGAAEAGDVVIVAVYWDGHRALLESLKDVLAGKIVVDCVNPLGFDKRGAYALPVEEGSAAEQAAAILPDSRVVAAFHHVSAVLLLDPEVEKVDLDVLVLGDDREATDVVRALAARIPGVRGVYGGRLRNAHQVEAFTANLISINRRYKAHAGIRITDI
B3: enzyme (Listeria monocytogenes, UniProt Q8Y829); chain MKKVITYGTFDLLHWGHIHLLKRAKALGDYLIVAISSDEFNRIKHKEAYHSYEHRKLIIEAIRYVDEVIPENNWEQKRDDIEKYGIDVFVMGDDWEGEFDFLKDVCEVVYLPRTEGISTSQIKDELK
B4: TcC (Trypanosoma cruzi, UniProt Q4DGA3); chain MPREYEFAEKILFTEEEIRTRIMEVAKRIADDYKGKGLRPYVNPLVLISVLKGSFMFTADLCRALSDFNVPVRMEFICVSSYGEGVTSSGQVRMLLDTRHSIEGHHVLIVEDIVDTALTLNYLYHMYFTRRPASLKTVVLLDKREGRRVPFSADYVVANIPNAFVIGYGLDYDDTYRELRDIVVLRPEVYAEREAARQKKQRAIGSADTDRDAKREFHSKY
B5: protein (Triticum aestivum, UniProt G9M5S8); chain AGVATVAPLPLPASPQIQCFPTSSTNIHHQLSMLDVLEKIGISRHFAGEIKSVLDFTYSRWLQRDEEIMLDTGTCAMAFRILRMNGYDVSSDSLSHLTEASVHLNDTRSLLELYKVSQVSTSKHELILDSIGSWSGRLLKEQLRSSKAQKLTPLLREVEHALDSPFYTTLDRLEHKMNIEQFDFMEHQMLYLPWQRNQDLLALGVMDFNTSQIVCQQELQHLESWVKDSRLDQLPFARQKLAYFYLSAAGTMLPGELSDARILWAKNGALTTVVDDFFDVGGSKKELENLTTLVEMWDKHEEIQYYSEHVEIVFSAIYNSVNQLGAKASAVQGRNVTKHFVDIWQDLIRNMMTEVEWRETGYIPTPEEYMENAVVTFALGPIVLPALYFIGPKITEYTVRDTEYNELFRLMSTCGRLLNDVQTYEREYIDGKINSVSLLVHHSDGSMTIPEARKELQEPIDTCRRDLLRLVLKEDSVMPRLCKELFWKMCKTCYFFYYQGDAFSSPEEKVGAVDAVIHEPLQLPLDLRPGLDLSYLHERKND
B6: ycjS (Escherichia coli, UniProt P77503); chain MKSAMTSSPLRVAIIGAGQVADKVHASYYCTRNDLELVAVCDSRLSQAQALAEKYGNASVWDDPQAMLLAVKPDVVSVCSPNRFHYEHTLMALEAGCHVMCEKPPAMTPEQAREMCDTARKLGKVLAYDFHHRFALDTQQLREQVTNGVLGEIYVTTARALRRCGVPGWGVFTNKELQGGGPLIDIGIHMLDAAMYVLGFPAVKSVNAHSFQKIGTQKSCGQFGEWDPATYSVEDSLFGTIEFHNGGILWLETSFALNIREQSIMNVSFCGDKAGATLFPAHIYTDNNGELMTLMQREIADDNRHLRSMEAFINHVQGKPVMIADAEQGYIIQQLVAALYQSAETGTRVEL
B7: TIIAS (Salvia miltiorrhiza, UniProt A0A8K1XH31); chain MATSSLKNCSQENEADRVHELNAFEATKAGVKGLTDSGVQKVPRMFIRPADELVEERNRSRSPLQAPVIDLGRIGEGEGREKAVSEVRWASKELGIFQIVNHGVAVEVMDAMIDGVRKFHEQDAEAKKQFHTRDAMRKVMYASNVDLYKSRAANWRDTFSVALMGSDRVEPEELPEICRDSTIKYLDEVTNLAHTLFELLSEALGLEQGCLGALKCGRGRTFVGQYYPACPEPELTMGMTNHTDPCFLTILLQDQIGGLQALHNSQYINVEPLPASFVVNIGDMLQIVTNDEFISPIHRVHANRAGPRISVAGFFTGDAISGTIYGPIKELVSENNRARYKEFTVGEYMSKFLERPIDKSGLDEWRLQDEDNV
B8: putA E639A (Bradyrhizobium diazoefficiens, UniProt Q89E26); chain MPNIPPPFTAPYAPDDAEIAARLLPASHLSPPQEARIHRTATRLIEAIRKRDDRLGGVEDMLREFALSTKEGLALMVLAEALLRVPDARTADQFIEDKLGEGDFIHHETKSTAFLVNASAWALGLSARVIQPGETPDGTIGRLVKRLGAPAVRTATRQAMRLMGNHFVLGETIEQALERGKPRSGQKTRYSFDMLGEGARTAADARRYFDAYASAIETIGKAAGNHALPDRPGISVKLSALHPRFEAISRARVMVELVPQLLDLAQRAKAHDLNFTVDAEEADRLELSLDVIAATLADPSLKGWDGFGLAIQAYQKRASAVIDYVDALARAHDRKLMVRLVKGAYWDTEIKRAQERGLDGYPVFTRKAMTDLNYVACASKLLALRPRIFPQFATHNALTVATVLEMAEGSSGFEFQRLHGMGEALYEQLAKDHADIAYRTYAPVGSHRDLLAYLVRRLLENGANSSFVAQAADYRVPVPALLQRPADAIVRPQAAAHPRIPLPCDLFAPERRNSRGVEFGARTALDQLLTDVKAETGDLKPIADATPDQAHAAVAAARAGFAGWSRTPAGIRAAALEQAAHLLESRSAHFIALLQREGGKTLDDALSELREAADFCRYYAAQGRKLFGSETAMPGPTGASNALTMRGRGVFVAISPWNFPLAIFLGQVTAALMAGNSVVAKPAEQTPRIAREAVALLHEAGIPKSALYLVTGDGRIGAALTAHPDIAGVVFTGSTEVARSINRALAAKDGPIVPLIAETGGINAMIADATALPEQVADDVVTSAFRSAGQRCSALRLLFVQEDVADRMIEMVAGAARELKIGDPSDVATHVGPVIDVEAKQRLDAHIARMKTEARLHFAGPAPEGCFVAPHIFELTEAGQLTEEVFGPILHVVRYRPENLERVLRAIERTGYGLTLGVHSRIDDSIEAIIDRVQVGNIYVNRNMIGAVVGVQPFGGNGLSGTGPKAGGPHYLARFATEQTVTINTAAAGGNAALLAGEE
B9: protein (UniProt A0A4Y6I1F8); chain MGSEVVSKKHEFGALEVEGIDFRASVAALGSTKKLVLGGAGFRGLEINGNLVKFTAIGIYVEEAIIPHLSPKLGGKTVEELCANELLFEEVLSAPFDKLIRVVFLLPLTGPQYSEKVVERIGLLPNPGLKEESIKQFLEIFKAENFPPRTSLVCSFTEDGLKIAFMKGPDFPEESDAVIEDKYFARAFLATIIAKDGVSPMAKLSFAERVSKYL
B10: ASRGL1 (Homo sapiens, UniProt Q7L266); chain 1 MNPIVVVHGGGAGPISKDRKERVHQGMVRAATVGYGILREGGSAVDAVEGAVVALEDDPEFNAGCGSVLNTNGEVEMDASIMDGKDLSAGAVSAVQCIANPIKLARLVMEKTPHCFLTDQGAAQFAAAMGVPEIPGEKLVTERNKKRLEKEKHEKGAQKTDCQKNLG; chain 2 TVGAVALDCKGNVAYATSTGGIVNKMVGRVGDSPCLGAGGYADNDIGAVSTTGHGESILKVNLARLTLFHIEQGKTVEEAADLSLGYMKSRVKGLGGLIVVSKTGDWVAKWTSTSMPWAAAKDGKLHFGIDPDDTTITDLP
B11: enzyme (Thermobifida fusca, UniProt Q47RK4); chain MTDVYILDAVRTPFGRYGGALSGIRPDDLAAHVLRALAERSPGLDPAAVDDVFFGDANGAGEDNRNVARMAALLAGWPTSVPGVTLNRLCGSGMESVIAANRAIAVGDASLAVAGGVESMSRAPWVLPKPAQGFPTGHETLYSTTLGWRMVNPAMPEQWTVSLGESTEQVAATYGISRAEQDAFALRSHERAARAWAEGVFDAEITQIPGAELERDESIRETSAEKLAALKPAFRPDGTITAGNASPLNDGAAALLIGDAAAAERVGREPLARIVSRGVAAVDPDVFGIGPVQAAEIALRRAGIGWDDLSVVELNEAFAAQSLACLKLWPDLDPEIVNPNGGAIAIGHPLGASGARIVGTLAHELHRRGGGWGLAAICIGVGQGLAVVLHR
B12: protein (Stereum hirsutum, UniProt P9WEW1); chain MVRSPVSDKFCIPDTLASWPYPRILNPHYAEEKAASAAWTKGFGAFGPKAQDAFDRCDFNLLACLAYPIATPERCRSGCDLMNLFFVIDEHSDTHGEETVRKMKDVVMDAIRNPHKPRPNDEWIGGEIARQFWERAMCYASEISQRRFIDTFDEYLESVVDQAADRDSARIRDIESYINIRRNTIGAKPSFVIMEQGMDIPDNVFENEVFQRLRMATIDMLCLGNDIVSYNIEQARGDDSHNIVRIVMNELDTDVPRAMDWVAQRHTQLEREFFTALSELPTWGEPIDGWVKEYVYGLGNWVRANDQWSFESQRYFGTKGMEIMKSRWLSVLPKVRPAEVGPQLVDQSLL
Chain of UniProt Q04049 (whole entry, looked up): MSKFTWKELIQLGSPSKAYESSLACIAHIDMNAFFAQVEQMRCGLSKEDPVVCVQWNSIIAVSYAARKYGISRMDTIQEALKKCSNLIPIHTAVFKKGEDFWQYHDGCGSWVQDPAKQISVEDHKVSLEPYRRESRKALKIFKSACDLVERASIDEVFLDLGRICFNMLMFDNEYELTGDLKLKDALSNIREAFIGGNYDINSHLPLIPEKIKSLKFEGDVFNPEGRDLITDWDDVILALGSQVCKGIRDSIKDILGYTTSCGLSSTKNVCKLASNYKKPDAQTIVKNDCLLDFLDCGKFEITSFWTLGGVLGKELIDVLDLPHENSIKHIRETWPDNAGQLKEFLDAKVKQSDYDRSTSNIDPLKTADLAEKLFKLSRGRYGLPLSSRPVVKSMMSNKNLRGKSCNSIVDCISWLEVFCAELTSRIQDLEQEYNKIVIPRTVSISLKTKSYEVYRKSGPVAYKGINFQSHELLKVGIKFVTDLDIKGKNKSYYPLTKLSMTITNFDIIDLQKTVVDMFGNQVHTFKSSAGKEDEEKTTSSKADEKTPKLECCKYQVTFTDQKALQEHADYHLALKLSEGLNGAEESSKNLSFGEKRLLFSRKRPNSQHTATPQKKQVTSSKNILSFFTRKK

`B1 (GTPBP3 A162P)` has a kcat of 0.0155 ± 0.002 s⁻¹ (Nc1nc2c(ncn2[C@@H]2O[C@H](COP(=O)(O)OP(=O)(O)OP(=O)(O)O)[C@@H](O)[C@H]2O)c(=O)[nH]1; pH 8, 37 °C, KCl 300 mM).
`B2 (enzyme P89Y)` gave a kcat of 0.0118 ± 0.0016 s⁻¹ (NC(=O)c1ccc[n+](CCCO)c1; pH 8, 25 °C).
`speG (Vibrio cholerae, UniProt Q9KL03)` gave a kcat of 92.1 s⁻¹ (CC(=O)SCCNC(=O)CCNC(=O)[C@H](O)C(C)(C)COP(=O)(O)OP(=O)(O)OC[C@H]1O[C@@H](n2cnc3c(N)ncnc32)[C@H](O)[C@@H]1OP(=O)(O)O; pH 9, 37 °C).
With `B3 (enzyme)` the kcat was 4.15 s⁻¹ (O=P(O)(O)OC[C@H](O)CO; pH 8, 37 °C, apparent).
The kcat of `B4 (TcC)` is reported as 31 ± 1 s⁻¹ (O=P(O)(O)OC[C@H]1O[C@H](OP(=O)(O)OP(=O)(O)O)[C@H](O)[C@@H]1O; pH 8.3, 37 °C, GMP biosynthesis, apparent, together with: Gua 100 µM).
The kcat of `RAD30 (Saccharomyces cerevisiae, UniProt Q04049)` is reported as 0.00133 ± 8.33e-05 s⁻¹ (Nc1nc2c(ncn2[C@H]2C[C@H](O)[C@@H](COP(=O)(O)OP(=O)(O)OP(=O)(O)O)O2)c(=O)[nH]1; pH 7.5, apparent Km, opposite dT, undamaged template, apparent, together with: MgCl2 10 mM).
`B5 (protein)` has a kcat of 0.45 ± 0.01 s⁻¹ (CC(C)=CCC/C(C)=C/CC/C(C)=C/CO[P@@](=O)(O)OP(=O)(O)O; 30 °C).
For `B6 (ycjS)`, the kcat was 0.17 ± 0.01 s⁻¹ (OC[C@H]1OC[C@H](O)[C@@H](O)[C@@H]1O; pH 8, 30 °C, together with: NAD+ 2.0 mM).
`B7 (TIIAS)` has a kcat of 0.6 ± 0.03 s⁻¹ (C[C@H]1COC2=C1C(=O)C(=O)c1c2ccc2c1CCCC2(C)C; pH 6.5, 20 °C).
`B8 (putA E639A)` has a kcat of 1.95 ± 0.24 s⁻¹ (O=C(O)[C@@H]1CCCN1; pH 8, 23 °C).
For `B9 (protein)`, the kcat was 156 ± 12.9 s⁻¹ (O=C(/C=C/c1ccc(O)cc1)c1c(O)cc(O)cc1O).
The kcat of `B10 (ASRGL1)` is reported as 6 ± 0.2 s⁻¹ (C[C@H](NC(=O)C[C@H](N)C(=O)O)C(=O)O; pH 7.4, 37 °C, NaCl 100 mM).
The kcat of `dihydrodipicolinate synthase homolog (Oceanobacillus iheyensis, UniProt Q8EMJ7)` is reported as 0.13 s⁻¹ (O=C(O)C(=O)C[C@@H](O)[C@H](O)C(=O)O; pH 8, together with: MgCl2 5 mM).
With `B11 (enzyme)` the kcat was 0.005333 ± 3.67e-05 s⁻¹ (CC(C)(COP(=O)(O)OP(=O)(O)OC[C@H]1O[C@@H](n2cnc3c(N)ncnc32)[C@H](O)[C@@H]1OP(=O)(O)O)[C@@H](O)C(=O)NCCC(=O)NCCSC(=O)CCC(=O)O; pH 7.4, 37 °C).
`enzyme (Daphnia magna, UniProt A0A0A7CK57)` has a kcat of 18.6 ± 0.6 s⁻¹ (N=C(N)NCCC[C@H](N)C(=O)O; pH 8.5).
With `B12 (protein)` the kcat was 0.0037 ± 0.0006 s⁻¹ (CC(C)=CCC/C(C)=C/CC/C(C)=C/CO[P@@](=O)(O)OP(=O)(O)O; pH 8, NaCl 200 mM, together with: FPP 1–100 µM).

Excerpt of the above:
`B5 (protein)` has a kcat of 0.45 ± 0.01 s⁻¹ (CC(C)=CCC/C(C)=C/CC/C(C)=C/CO[P@@](=O)(O)OP(=O)(O)O; 30 °C).
